Results from different studies.
Compare with care: the assays were run in different laboratories. ± marks the error that the study gave.

SMILES	assay	system	conditions	quantity	value
CC[C@H](Nc1ncnc2[nH]cnc12)c1oc2ccccc2c(=O)c1-c1cccc(F)c1		human patients, plasma	oral, 600 mg twice daily, together with: romidepsin 12 mg/m2	t1/2	3.8 ± 1.29 h
FC(F)(F)c1ccc(CNc2ccc(Cc3c[nH]c4ncc(Cl)cc34)cn2)cn1	measured: total radioactivity	healthy human male, whole blood	oral, 400 mg [14C]-labelled	t1/2	42.3 h
COc1ccc([C@@H](O)c2cc(-c3ncnc4cc(N5CCOCC5)ccc34)c(F)cc2Cl)nn1		human, plasma	oral, 250 mg capecitabine, single dose, day 1	t1/2	5.14 h
N#CCC1CCN(c2nc(Nc3ccc(N4CCC(O)CC4)cc3)c3c(=O)[nH]ncc3n2)CC1		human, plasma	oral, 20 mg once daily, day 1	t1/2	6.62 h
NC(=S)NN=Cc1ncccc1N		human, plasma	oral, geometric mean, total	t1/2	1.5 h
Cl.[2H]C([2H])([2H])CC(=O)c1cnc(NC(=O)C2CC2)cc1Nc1cccc(-c2ncn(C([2H])([2H])[2H])n2)c1OC		human, fed, plasma	oral, 25 mg, single dose, liquid formulation	t1/2	7.91 h
CCCOc1ccc(NC(=O)CN2CCN(C)CC2)cc1-c1nc(CC)c(CC)c(=O)[nH]1		human, fasting, plasma	oral, 10 mg, together with: alcohol 0.5 g/kg	t1/2	9.43 ± 2.06 h
Cc1cn([C@H]2C[C@H](N=[N+]=[N-])[C@@H](CO)O2)c(=O)[nH]c1=O		human, both sexes, PBMCs	oral, 600 mg, single dose	t1/2	2.49 ± 0.638 h
C[C@H]1CNCCCN1S(=O)(=O)c1cccc2cncc(F)c12		human, male, plasma	ocular instillation, 1 drop per eye twice daily, day 8	t1/2	0.25 h
C[C@]12C=CC(=O)C=C1CC[C@@H]1[C@@H]2[C@@H](O)C[C@@]2(C)[C@H]1CC[C@]2(O)C(=O)CO		human	oral, dose not given	t1/2	2.27 h
C[C@@H](Nc1cc(F)cc(F)c1)c1cc(C(=O)N(C)C)cc2c(=O)cc(N3CCOCC3)oc12		human, plasma	oral, 120 mg, day 1 single dose	t1/2 geometric mean	4.45 h

A few entries again:
SMILES	assay	system	conditions	quantity	value
Cl.[2H]C([2H])([2H])CC(=O)c1cnc(NC(=O)C2CC2)cc1Nc1cccc(-c2ncn(C([2H])([2H])[2H])n2)c1OC		human, fed, plasma	oral, 25 mg, single dose, liquid formulation	t1/2	7.91 h
CCCOc1ccc(NC(=O)CN2CCN(C)CC2)cc1-c1nc(CC)c(CC)c(=O)[nH]1		human, fasting, plasma	oral, 10 mg, together with: alcohol 0.5 g/kg	t1/2	9.43 ± 2.06 h
